Results pooled from the literature.
± marks the error that the study gave.

| Compound | test | test system | conditions | quantity | value |
| --- | --- | --- | --- | --- | --- |
| CCC[C@@](N)(CO)CCc1ccc(OCCCCCC(C)C)cc1 |  | dog, male hounds, plasma | oral capsule, 5 mg/kg, geometric mean | AUC(0-72 h) | 7.28 µM·h |
| C[C@]1(CO)Cc2ncn(-c3ccc(C#N)c(Cl)c3)c2C(=O)O1 |  | human, plasma | 0.7 mg single dose, geometric mean | AUC(0-inf) | 0.12 µM·h |
| CC(C)[C@H](C(=O)O[C@H](C#N)c1cccc(Oc2ccccc2)c1)c1ccc(Cl)cc1 | refers to: CYP2C8 | human, age 1 year |  | enzyme contribution to clearance | 0.97% |
| O=S(=O)(Nc1ccccc1)c1ccc(NC(=S)Nc2ccccc2)cc1 | refers to: TRIG | male mouse, blood | oral, 20 mg/kg daily, 14 days | blood chemistry level | 215 mg/dL |
| CC(C)C[C@H](NC(=O)[C@H](CCCCN)NC(=O)OCC1c2ccccc2-c2ccccc21)C(=O)N[C@H](C(=O)N[C@@H](Cc1ccccc1)C(=O)N[C@@H](Cc1ccccc1)C(=O)N[C@@H](CCCCN)C(=O)NCC(=O)N[C@@H](Cc1ccccc1)C(=O)N[C@@H](C)C(=O)N[C@@H](Cc1c[nH]c2ccccc12)C(=O)N[C@@H](CC(N)=O)C(=O)N[C@H](C(=O)N[C@H]1CSSC[C@@H](C(=O)N[C@@H](Cc2c[nH]cn2)C(=O)N[C@@H](CCCNC(=N)N)C(=O)N[C@@H](CCCNC(=N)N)C(=O)N[C@@H](C)C(=O)N[C@@H](CC(N)=O)C(N)=O)NC(=O)[C@H](C(C)C)NC(=O)[C@H](CCCNC(=N)N)NC(=O)[C@H](C(C)C)NC(=O)CNC(=O)[C@H](CC(N)=O)NC(=O)[C@H](CCCNC(=N)N)NC(=O)[C@H](Cc2ccc(O)cc2)NC(=O)[C@H](C(C)C)NC1=O)C(C)C)C(C)C |  | ICR mice, blood | intraductal mammary, 10 mg/kg, day 5 | monocytes | 3.36 ± 0.35% |
| COc1cc2c(Oc3ccc4[nH]c(C)cc4c3F)ccnc2cc1OCC1(N)CC1 |  | paediatric refractory sarcoma patients | 12 mg | weight loss incidence | 18.2% |
| CO[C@H]1C[C@@H]2CC[C@@H](C)[C@@](O)(O2)C(=O)C(=O)N2CCCC[C@H]2C(=O)O[C@H]([C@H](C)C[C@@H]2CC[C@@H](OC(=O)NCCOCCOCCOCCOCCOCCOCCOCCOCCC(=O)N3CCc4cc(Cn5nc(-c6ccc7oc(N)nc7c6)c6c(N)ncnc65)ccc4C3)[C@H](OC)C2)C[C@@H](O)[C@H](C)/C=C(\C)[C@@H](O)[C@@H](OC)C(=O)[C@H](C)C[C@H](C)/C=C/C=C/C=C/1C | dose-escalation trial | patients with advanced solid tumours | intravenous, all doses weekly, grade ≥3 | AEs leading to dose reduction | 5.3% |
| O=C1Nc2cc3[nH]nc(-c4ccncc4)c3cc2CN1Cc1ccccc1 | CTCAE v4.03 | advanced solid tumour patients | intravenous, 3.6 mg/kg, schedules 1/2 | patients with dyspnoea | 33% |
| CC(C)CC(=O)OC[C@H]1O[C@@](C#N)(c2ccc3c(N)ncnn23)[C@H](O)[C@@H]1O |  | rat whole blood | 5 µM, 15 min | remaining compound | 0.038 ± 0.014% |
| C[C@@H]1OC(=O)NN=C1c1ccc(-c2ccc(F)cc2)c(C(F)(F)F)c1 | phase I trial, refers to: AST increased all grades | human patients | 20 mg loading then 1 mg daily | patients with adverse event | 50% |
| NC(=O)[C@H]1CCN(c2ncnc(N)c2F)C[C@@H]1N1CCC[C@@H](Nc2cc(Cl)cc(C(F)(F)F)c2)C1=O |  | B-cell malignancy patients | oral, 164 mg twice daily, dose | grade ≥3 neutropenia | 0% |
| CCCCCCCCCCCCCCCC(=O)N[C@@H](CCC(=O)NCCCC[C@H](NC(=O)[C@H](CC(=O)O)NC(=O)[C@H](CO)NC(=O)[C@@H](NC(=O)[C@H](Cc1ccccc1)NC(=O)[C@@H](NC(=O)CNC(=O)[C@H](CCC(N)=O)NC(=O)[C@H](CO)NC(=O)[C@@H](N)Cc1c[nH]cn1)[C@@H](C)O)[C@@H](C)O)C(=O)N[C@@H](CO)C(=O)N[C@@H](CCC(=O)O)C(=O)N[C@@H](Cc1ccc(O)cc1)C(=O)N[C@@H](CC(C)C)C(=O)N[C@@H](CC(=O)O)C(=O)N[C@@H](CO)C(=O)N[C@@H](CCC(=O)O)C(=O)N[C@@H](CCCNC(=N)N)C(=O)N[C@@H](C)C(=O)N[C@@H](CCCNC(=N)N)C(=O)N[C@@H](CC(=O)O)C(=O)N[C@@H](Cc1ccccc1)C(=O)N[C@H](C(=O)N[C@@H](C)C(=O)N[C@@H](Cc1c[nH]c2ccccc12)C(=O)N[C@@H](CC(C)C)C(=O)N[C@@H](CCC(=O)O)C(=O)N[C@@H](C)C(=O)NCC(=O)NCC(=O)O)C(C)C)C(=O)O |  | human, CrCl ≥45 to <60 mL/min | sc, 100 µg single dose | abdominal distension | 0% |
| CCN1[C@@H](C(=O)NC23CCC(C(=O)O)(CC2)CC3)[C@H](c2cccc(Cl)c2F)[C@]2(C(=O)Nc3cc(Cl)ccc32)C12CCCCC2 |  | patients with advanced solid tumours | oral, 200 mg | Leukopenia incidence | 50% |
| CN1CC[C@@H](c2c(O)cc(O)c3c(=O)cc(-c4ccc(C(F)(F)F)cc4Cl)oc23)[C@@H]1CO | refers to: Vomiting | AML | oral, 150 mg, intermittent dosing | patients with adverse event | 25% |
